# Published values from different studies.
# Protocols differ between the studies behind these lines. Several values in a cell are separate wells, animals, samples, runs or records. ± gives the spread as reported.
# UniProt O75385, sequence (whole entry, looked up): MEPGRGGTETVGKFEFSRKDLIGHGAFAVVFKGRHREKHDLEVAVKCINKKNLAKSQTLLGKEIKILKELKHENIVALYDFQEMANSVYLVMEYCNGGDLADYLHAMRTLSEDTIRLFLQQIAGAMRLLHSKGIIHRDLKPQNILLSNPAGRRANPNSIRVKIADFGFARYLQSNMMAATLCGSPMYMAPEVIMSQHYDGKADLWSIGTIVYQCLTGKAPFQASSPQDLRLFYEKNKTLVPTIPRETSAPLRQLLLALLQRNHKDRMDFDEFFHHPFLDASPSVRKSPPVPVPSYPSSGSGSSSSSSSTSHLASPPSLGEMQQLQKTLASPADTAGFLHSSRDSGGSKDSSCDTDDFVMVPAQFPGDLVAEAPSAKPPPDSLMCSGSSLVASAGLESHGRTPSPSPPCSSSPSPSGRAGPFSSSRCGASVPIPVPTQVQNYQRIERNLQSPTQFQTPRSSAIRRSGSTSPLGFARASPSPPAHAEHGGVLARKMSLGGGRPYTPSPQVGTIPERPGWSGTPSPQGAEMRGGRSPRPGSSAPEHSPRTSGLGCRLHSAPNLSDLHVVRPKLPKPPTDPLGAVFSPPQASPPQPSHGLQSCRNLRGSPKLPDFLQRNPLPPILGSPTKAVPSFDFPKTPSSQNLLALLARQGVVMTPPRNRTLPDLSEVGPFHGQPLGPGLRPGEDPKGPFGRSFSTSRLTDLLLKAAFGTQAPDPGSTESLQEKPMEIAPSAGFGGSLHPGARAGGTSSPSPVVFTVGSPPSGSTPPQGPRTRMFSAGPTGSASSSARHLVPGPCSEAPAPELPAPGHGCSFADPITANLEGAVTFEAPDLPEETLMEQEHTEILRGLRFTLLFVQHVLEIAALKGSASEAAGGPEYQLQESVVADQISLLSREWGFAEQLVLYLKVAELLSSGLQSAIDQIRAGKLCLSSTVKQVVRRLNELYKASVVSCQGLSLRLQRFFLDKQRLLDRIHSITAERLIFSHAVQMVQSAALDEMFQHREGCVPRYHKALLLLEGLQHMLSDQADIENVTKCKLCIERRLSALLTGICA
SMILES,tested on,test,test system,setting,how to read,endpoint,value
CN(C)c1nc(NCc2cc(Cl)c(F)cc2F)c(/N=N/c2ccc(Cl)cc2)c(N(C)C)n1,Ostrinia furnacalis,leaf dipping,,"500 mg/L, 96 h",,mortality,100%
O=C1NC2(CC2)COc2ncc(F)cc2[C@H]2COCCN2c2ccn3ncc1c3n2,,,"Sprague-Dawley rat, female, brain","oral, 20 mg/kg/day, 4 weeks dosing, end of recovery",,organ-to-body weight ratio,0.674 ± 0.07%
CC[C@H](C)[C@H](NC(=O)[C@H](CCCCN)NC(=O)[C@H](CCCCN)NC(=O)[C@H](Cc1ccccc1)NC(=O)[C@H](Cc1ccccc1)NC(=O)[C@H](CCCCN)NC(=O)[C@H](CCCCN)NC(=O)[C@H](Cc1ccccc1)NC(=O)[C@H](CCCNC(=N)N)NC(=O)[C@@H](N)CCCCN)C(=O)N[C@@H](CCCCN)C(=O)N[C@@H](CCCCN)C(=O)N[C@@H](CO)C(=O)N[C@H](C(=O)N[C@@H](CCCCN)C(=O)N[C@@H](CCCCN)C(=O)N[C@@H](CCCNC(=N)N)C(=O)N[C@H](C(=O)N[C@@H](CCCCN)C(=O)N[C@@H](CCCCN)C(=O)N[C@@H](CC(C)C)C(=O)N[C@@H](Cc1ccccc1)C(=O)N[C@@H](CCCCN)C(=O)N[C@@H](CCCCN)C(=O)N1CCC[C@H]1C(=O)N[C@@H](CCCNC(=N)N)C(=O)N[C@H](C(=O)N[C@H](C(=O)N1CCC[C@H]1C(=O)N[C@H](C(=O)N[C@@H](CO)C(=O)N[C@H](C(=O)N1CCC[C@H]1C(=O)N[C@@H](Cc1ccccc1)C(=O)O)[C@@H](C)CC)[C@@H](C)CC)[C@@H](C)CC)C(C)C)C(C)C)C(C)C,Escherichia coli,,E24,"20 h, together with: 150 mM NaCl",,MIC,4 µg/mL
CC(C)C[C@@H]1NC(=O)[C@H](C(C)C)NC(=O)[C@]2(C)CCCN2C(=O)[C@H](C(C)C)NC(=O)[C@H](Cc2ccccc2)NC(=O)CSCCNC(=O)[C@H](Cc2ccccc2)N(C)C(=O)[C@H](CC(C)C)NC(=O)[C@H](CCC2CCCCC2)NC1=O,HIV-1,viral replication,MT4,,reference: cell EC50 over protease IC50,EC50/IC50 ratio,41.5
NCCCO.O=C(O)C(Cl)Cl,Solanum nigrum,herbicidal activity,,"15 mg/mL, 21 days, pre-emergence greenhouse",,inhibition,0%
CC(C)[C@H]1NC(=O)[C@H](Cc2ccccc2)NC(=O)[C@@H](C(C)C)NC(=O)[C@@H](C)NC(=O)[C@H](CO)NC(=O)[C@@H](Cc2c(-c3ccc(-c4ccc5ccccc5c4)cc3)[nH]c3ccccc23)NC(=O)[C@@H](CO)NC1=O,Mycobacterium marinum,,,,,MIC90,40.8 µM
Cc1cc(C(=O)Nc2nc3cccc(C)c3n2[C@H]2CCCCN(C(=O)/C=C/CN(C)C)C2)ccn1,Trypanosoma brucei brucei,,2T1 CLK1 C215S overexpressing,"0.00114 µM, 72 h",,survival,80.8% and 106% and 94.8% and 102% and 100%
COC1(OC)CC[C@@]2(C)[C@H](CC[C@@H]3[C@@H]2CC[C@]2(C)[C@@H](C4=CC(=O)OC4)CC[C@]32O)C1,Schistosoma mansoni,microscopic viability score,newly transformed schistosomula,"10 µM, 72 h",,viability reduction,32.3%
CC[C@H](C)[C@@H]1NC(=O)[C@H](CO)NC(=O)CC(CCCCN)NC(=O)[C@@H]2CSSC[C@@H](C(=O)N[C@@H](Cc3ccc(O)cc3)C(N)=O)NC(=O)[C@H](CCCCN)NC(=O)[C@@H]3CSSC[C@H](NC(=O)[C@H](CCCNC(=N)N)NC(=O)CC(CC(C)C)NC(=O)[C@H](CC(=O)O)NC(=O)[C@H](CC(=O)O)NC(=O)[C@H](CCC(=O)O)NC(=O)[C@H](CC(N)=O)NC(=O)[C@H](Cc4c[nH]c5ccccc45)NC(=O)[C@@H]4CCCN4C(=O)CNC(=O)[C@H](CC(N)=O)NC(=O)[C@@H](NC(=O)CNC(=O)[C@H](Cc4ccccc4)NC(=O)CN)CSSC[C@H](NC(=O)[C@H](Cc4ccc(O)cc4)NC(=O)CNC(=O)CNC(=O)[C@H](CCCCN)NC(=O)[C@H](Cc4ccc(O)cc4)NC(=O)CNC(=O)[C@H](CCCCN)NC1=O)C(=O)N[C@@H](C)C(=O)N[C@@H](CCCCN)C(=O)NCC(=O)NCC(=O)N[C@@H](Cc1ccccc1)C(=O)N[C@@H](C(C)C)C(=O)N3)C(=O)N[C@@H](Cc1c[nH]cn1)C(=O)NC(CC(N)=O)CC(=O)N[C@@H](Cc1c[nH]cn1)C(=O)N2 (stereo partly drawn),Streptococcus pneumoniae,,BS-444,"24 h, 37 °C, 99.9% killing",,MBC,4 µM
[O-][N+]1=C(c2ccccc2)C2=NCCCN2c2ncccc21,Clostridioides difficile,microbial growth,,,,MIC50,0.5 µg/mL
COC(=O)C1=CO[C@@H](C)[C@@H]2Cn3ccc4c5ccccc5nc-4c3C[C@H]12,Plasmodium falciparum,"growth, [3H]-hypoxanthine uptake",FCR3,48 h,reference: FCR3 IC50 over 3D7 IC50,resistance index,0.2
CN(C)[C@H]1C[C@@]23CC[C@@]4(O2)C(=CC[C@]2(C)[C@@H](c5ccc6ccncc6c5)CC[C@H]24)C=C3[C@@H](O)[C@@H]1O,"Serine/threonine-protein kinase ULK1 (ULK1, Homo sapiens, UniProt O75385)","ATP probe labelling, inhibitor, KiNativ profiling",,1 µM,,inhibition,5.7%
CC(C)C[C@H](NC(=O)[C@@H](N)CO)C(=O)N[C@@H](Cc1c[nH]c2ccccc12)C(=O)N[C@@H](CCC(=O)O)C(=O)N[C@@H](CC(N)=O)C(=O)N[C@@H](Cc1ccccc1)C(=O)N[C@@H](CCCCN)C(N)=O,Gram-negative bacteria,,,,,geometric mean MIC,256 µM
FC(F)(F)c1cccc(CNc2nc(NC3CCN(Cc4ccccc4)CC3)c3nc[nH]c3n2)c1,Cryptococcus neoformans,"RNA-seq, measured: CNAG_04335",,"48 µg/mL, 3 h",reference: untreated,mRNA fold change,1.25
CCCCCOc1ccc(-c2ccc3ncnc(Nc4ccc(OCc5cccc(F)c5)c(Cl)c4)c3c2)c(F)c1F,Trypanosoma cruzi,"intracellular amastigote growth, β-galactosidase CPRG","3T3, Tulahuen, β-galactosidase-expressing","10 µM, 96 h",,inhibition,52%
CS(C)(=O)=Nc1ccc(-c2ccc(-c3nc4cc(O[C@@H]5CO[C@H]6[C@@H]5OC[C@H]6O)[nH]c4cc3F)cc2)cc1,"Tyrosine-protein kinase ABL1 (ABL1, Homo sapiens, UniProt P00519, Q252H)","enzyme activity, inhibitor",,10 µM,,inhibition,-13%
CCC1(CC)CC(=O)N(C2c3cc(C(=O)NC4c5ccccc5CC4O)ccc3OC2(C)COC)C(=N)N1 (stereo not drawn),Plasmodium falciparum,parasite growth,Dd2-NITD609,,,EC50,0.4 ± 0.2 nM
C[C@@H](O)[C@H](NC(=O)[C@H](CS)NC(=O)[C@H](Cc1ccccc1)NC(=O)[C@H](CS)NC(=O)[C@H](CCCNC(=N)N)NC(=O)[C@H](CCCNC(=N)N)NC(=O)[C@H](CCCNC(=N)N)NC(=O)[C@H](Cc1ccccc1)NC(=O)CNC(=O)[C@H](CCCNC(=N)N)NC(=O)[C@H](CS)NC(=O)[C@H](CCCNC(=N)N)NC(=O)CNC(=O)CN)C(=O)N[C@H](C(=O)N[C@@H](Cc1c[nH]cn1)C(=O)N[C@@H](CS)C(=O)O)[C@@H](C)O,Botrytis cinerea,grey mould lesion size,detached rose petals,48 h post-inoculation,,lowest effective concentration,3 µM
CC(C)[C@H]1NC(=O)CNC(=O)[C@H](CO)NC(=O)[C@@H](Cc2c(-c3ccc(-c4ccc5ccccc5c4)cc3)[nH]c3ccccc23)NC(=O)[C@@H](CO)NC(=O)[C@@H](C(C)C)NC(=O)[C@H](Cc2ccc(O)cc2)NC1=O,Mycobacterium marinum,,,,,MIC90,100 µM
[O-][N+]1=C(c2ccc(Cl)cc2)C2=NCCCCN2c2ccccc21,Clostridioides difficile,microbial growth,,,,MIC90,4 µg/mL
CN(C)c1nc(NCc2cccc3ccccc23)c(/N=N/c2ccc(Cl)cc2)c(N(C)C)n1,Ostrinia furnacalis,leaf dipping,,"500 mg/L, 96 h",,mortality,96.7 ± 5.77%
COc1ccccc1-c1n[nH]c2nc(NC3CCN(C(=O)Cc4ccc(F)cc4F)CC3)ncc12,,"bead binding, competition bead pull-down, measured: LINJ.33.1410",Leishmania donovani axenic amastigote extract,10 µM,reference: vehicle,relative abundance,0.8
CCOC(=O)c1ccc(OCCC2CCN(c3ccc(C)nn3)CC2)cc1,Rhinovirus A,"viral replication, high-content imaging","HeLa-CDHR3 C529Y, RV-A16",3 dpi,,IC50,13 ± 1 nM
CCCN1C(=O)C(CCC)(C(=O)OCC)Oc2cc(F)ccc21 (stereo not drawn),Setaria viridis,"fresh weight, greenhouse postemergence",,"postemergence, 150 g ai/ha, 21 days",,inhibition,32.2 ± 0.75%

# For quick reference, copied from above:
SMILES,tested on,test,test system,setting,how to read,endpoint,value
NCCCO.O=C(O)C(Cl)Cl,Solanum nigrum,herbicidal activity,,"15 mg/mL, 21 days, pre-emergence greenhouse",,inhibition,0%
CC(C)[C@H]1NC(=O)[C@H](Cc2ccccc2)NC(=O)[C@@H](C(C)C)NC(=O)[C@@H](C)NC(=O)[C@H](CO)NC(=O)[C@@H](Cc2c(-c3ccc(-c4ccc5ccccc5c4)cc3)[nH]c3ccccc23)NC(=O)[C@@H](CO)NC1=O,Mycobacterium marinum,,,,,MIC90,40.8 µM
